Measured values from different studies.
Each numbered part is a random draw from the data of one study; scales do not carry over between parts.
Sequence of UniProt Q96SB4 (whole entry, looked up): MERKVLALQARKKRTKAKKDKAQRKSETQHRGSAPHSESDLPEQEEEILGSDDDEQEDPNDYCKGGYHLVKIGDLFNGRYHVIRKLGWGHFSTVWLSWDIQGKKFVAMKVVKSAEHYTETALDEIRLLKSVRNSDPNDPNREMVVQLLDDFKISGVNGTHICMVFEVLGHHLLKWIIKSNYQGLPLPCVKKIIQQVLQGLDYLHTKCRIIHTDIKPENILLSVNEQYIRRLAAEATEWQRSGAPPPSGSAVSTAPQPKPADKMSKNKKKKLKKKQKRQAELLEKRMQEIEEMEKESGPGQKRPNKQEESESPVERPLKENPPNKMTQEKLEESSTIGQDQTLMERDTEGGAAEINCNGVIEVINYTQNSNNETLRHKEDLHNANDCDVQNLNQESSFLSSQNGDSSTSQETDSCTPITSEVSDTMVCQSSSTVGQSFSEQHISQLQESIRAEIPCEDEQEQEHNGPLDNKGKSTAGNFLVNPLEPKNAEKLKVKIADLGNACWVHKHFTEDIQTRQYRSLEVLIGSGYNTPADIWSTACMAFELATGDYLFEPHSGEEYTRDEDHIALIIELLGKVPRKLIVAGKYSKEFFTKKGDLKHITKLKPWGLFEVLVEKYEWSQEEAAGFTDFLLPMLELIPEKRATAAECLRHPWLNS
Sequence of UniProt P28223 (whole entry, looked up): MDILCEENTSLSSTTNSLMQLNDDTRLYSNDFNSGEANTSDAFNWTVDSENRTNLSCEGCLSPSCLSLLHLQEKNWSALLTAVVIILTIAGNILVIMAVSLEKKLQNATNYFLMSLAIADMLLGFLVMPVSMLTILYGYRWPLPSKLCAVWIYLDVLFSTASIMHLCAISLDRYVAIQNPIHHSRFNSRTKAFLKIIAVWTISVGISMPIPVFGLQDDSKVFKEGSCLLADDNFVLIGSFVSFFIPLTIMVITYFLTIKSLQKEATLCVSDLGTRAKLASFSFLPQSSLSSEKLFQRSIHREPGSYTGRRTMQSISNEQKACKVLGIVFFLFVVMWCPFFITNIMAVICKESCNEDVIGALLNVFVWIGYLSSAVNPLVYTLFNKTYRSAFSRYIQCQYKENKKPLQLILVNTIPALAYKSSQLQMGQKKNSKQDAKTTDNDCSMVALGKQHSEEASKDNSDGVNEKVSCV
Sequence of UniProt Q01959 (whole entry, looked up): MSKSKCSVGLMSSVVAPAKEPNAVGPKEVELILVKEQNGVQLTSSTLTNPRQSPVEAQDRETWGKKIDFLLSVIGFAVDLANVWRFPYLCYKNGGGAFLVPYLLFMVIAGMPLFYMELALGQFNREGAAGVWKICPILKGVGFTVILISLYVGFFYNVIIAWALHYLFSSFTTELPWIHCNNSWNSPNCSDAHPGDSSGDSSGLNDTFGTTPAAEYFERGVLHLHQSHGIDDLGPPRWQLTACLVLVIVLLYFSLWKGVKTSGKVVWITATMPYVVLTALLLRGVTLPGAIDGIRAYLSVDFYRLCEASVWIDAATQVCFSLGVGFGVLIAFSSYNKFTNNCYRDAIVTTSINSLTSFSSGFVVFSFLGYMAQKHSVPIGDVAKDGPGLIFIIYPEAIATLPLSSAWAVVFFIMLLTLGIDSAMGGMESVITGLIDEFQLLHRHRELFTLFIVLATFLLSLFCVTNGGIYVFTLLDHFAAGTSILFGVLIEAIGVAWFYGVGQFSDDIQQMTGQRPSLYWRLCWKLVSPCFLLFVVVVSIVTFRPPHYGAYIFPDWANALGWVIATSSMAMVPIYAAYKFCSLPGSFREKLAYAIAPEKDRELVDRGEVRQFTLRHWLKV

Study 1 — organism: Sarcocystis neurona; effect on: parasite growth; tested at: 10 µM; time: 96 h; notes: first screen; baseline: untreated; endpoint: log2 fold change
Cc1ncc2n1-c1ccc(Cl)cc1C(c1ccccc1F)=NC2: 0.18
CN1CCCC(n2nc(Cc3ccc(Cl)cc3)c3ccccc3c2=O)CC1 (stereo not drawn): -2.48
CC(NC(C)(C)C)C(=O)c1cccc(Cl)c1 (stereo not drawn): 0.3
CCCC(C)(COC(N)=O)COC(=O)NC(C)C (stereo not drawn): 0.27
O=c1[nH]cc(F)c(=O)[nH]1: -3.58
CC(C)N(CCC(C(N)=O)(c1ccccc1)c1ccccn1)C(C)C (stereo not drawn): 0.09

Other studies, line by line
COc1cc(N[C@@H]2CCCC[C@]2(O)C(F)(F)F)ccc1F  inhibition (SLC6A3 (Homo sapiens, UniProt Q01959); ligand displacement; 10 µM): -17.1%
Brc1cnc2n[se]nc2c1  remaining compound (human, microsomes or S9; 2 µM, 0.5 h): 131%
O=C(NCc1ncc(C(F)(F)F)cc1Cl)c1ccc2c(c1)C1(CCS(=O)(=O)CC1)[C@@H](C1CC1)N2S(=O)(=O)c1ccc(F)cc1  remaining binding (SRPK1 (Homo sapiens, UniProt Q96SB4); cell-free assay, competition with immobilised ligand; 1 µM): 96%
COc1ccc(-c2c(Nc3ccccn3)[nH]c3c(C4=CCCCC4)c(-c4ccccc4)nn3c2=O)cc1  grade 3 bilirubin increased incidence (patients with advanced malignancies; oral, dose not given, treatment-emergent adverse events): 10%
COc1cc(-c2cn(C3CCc4ccccc4N(CC(F)(F)F)C3=O)nn2)ccc1-n1ccc(C)n1 (stereo not drawn)  inhibition (HTR2A (Homo sapiens, UniProt P28223); binding, radioligand binding; 10 µM): 5.83%
CC(=O)O[C@@H]1C[C@@]2(C)[C@H](c3ccoc3)C[C@H]3O[C@]32[C@]2(C)C(=O)C(O)=C3C(C)(C)C(=O)C=C[C@]3(C)C12 (stereo partly drawn)  remaining compound (human, microsomes or S9; 2 µM, 0.5 h): 65.1%
